Results pooled from the literature.
Numbered parts are unrelated; each lists some results of a single study. Several values in a cell are separate wells, animals, samples, runs or records.
Sequence of UniProt P10721 (whole entry, unmodified, looked up): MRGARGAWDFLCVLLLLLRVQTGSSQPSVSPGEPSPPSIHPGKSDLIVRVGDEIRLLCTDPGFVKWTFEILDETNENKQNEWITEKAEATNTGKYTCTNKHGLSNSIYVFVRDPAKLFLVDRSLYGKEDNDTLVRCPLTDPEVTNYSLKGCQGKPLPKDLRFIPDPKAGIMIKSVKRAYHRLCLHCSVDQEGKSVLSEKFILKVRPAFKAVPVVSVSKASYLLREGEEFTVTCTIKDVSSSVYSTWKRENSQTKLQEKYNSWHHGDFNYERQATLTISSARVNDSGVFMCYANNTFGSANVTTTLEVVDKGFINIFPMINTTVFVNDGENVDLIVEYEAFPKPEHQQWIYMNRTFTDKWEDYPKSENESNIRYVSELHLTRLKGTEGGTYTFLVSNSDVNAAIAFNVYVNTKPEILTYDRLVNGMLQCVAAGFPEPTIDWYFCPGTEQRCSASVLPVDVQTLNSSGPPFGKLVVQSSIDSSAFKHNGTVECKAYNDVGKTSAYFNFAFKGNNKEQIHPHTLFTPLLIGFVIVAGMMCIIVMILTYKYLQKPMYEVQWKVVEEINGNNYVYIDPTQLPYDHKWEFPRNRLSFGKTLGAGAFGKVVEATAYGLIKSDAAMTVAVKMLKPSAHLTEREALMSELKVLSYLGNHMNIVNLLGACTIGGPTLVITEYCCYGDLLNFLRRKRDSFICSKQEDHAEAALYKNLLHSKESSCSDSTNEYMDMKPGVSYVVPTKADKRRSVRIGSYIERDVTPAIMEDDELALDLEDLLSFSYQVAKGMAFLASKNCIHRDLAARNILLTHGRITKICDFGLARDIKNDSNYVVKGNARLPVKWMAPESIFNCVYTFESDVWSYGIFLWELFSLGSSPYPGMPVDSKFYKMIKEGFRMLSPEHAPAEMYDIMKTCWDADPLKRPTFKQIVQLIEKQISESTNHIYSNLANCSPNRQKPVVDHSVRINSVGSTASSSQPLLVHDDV
Sequence of UniProt Q13177 (whole entry, looked up): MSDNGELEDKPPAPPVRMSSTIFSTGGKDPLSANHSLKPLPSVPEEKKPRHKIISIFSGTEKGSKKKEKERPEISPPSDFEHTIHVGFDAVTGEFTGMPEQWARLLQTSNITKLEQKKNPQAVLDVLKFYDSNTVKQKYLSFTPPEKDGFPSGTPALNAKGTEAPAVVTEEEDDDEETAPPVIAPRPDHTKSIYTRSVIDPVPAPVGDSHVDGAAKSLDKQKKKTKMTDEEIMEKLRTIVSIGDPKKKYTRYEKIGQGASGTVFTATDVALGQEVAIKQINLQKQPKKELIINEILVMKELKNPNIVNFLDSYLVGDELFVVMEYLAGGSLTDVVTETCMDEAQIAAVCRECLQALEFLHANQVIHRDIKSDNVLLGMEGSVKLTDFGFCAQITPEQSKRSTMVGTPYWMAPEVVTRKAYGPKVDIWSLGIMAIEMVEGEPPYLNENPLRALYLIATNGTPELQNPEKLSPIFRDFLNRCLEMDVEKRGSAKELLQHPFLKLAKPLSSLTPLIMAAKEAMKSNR
Sequence of UniProt Q86Z02 (whole entry, looked up): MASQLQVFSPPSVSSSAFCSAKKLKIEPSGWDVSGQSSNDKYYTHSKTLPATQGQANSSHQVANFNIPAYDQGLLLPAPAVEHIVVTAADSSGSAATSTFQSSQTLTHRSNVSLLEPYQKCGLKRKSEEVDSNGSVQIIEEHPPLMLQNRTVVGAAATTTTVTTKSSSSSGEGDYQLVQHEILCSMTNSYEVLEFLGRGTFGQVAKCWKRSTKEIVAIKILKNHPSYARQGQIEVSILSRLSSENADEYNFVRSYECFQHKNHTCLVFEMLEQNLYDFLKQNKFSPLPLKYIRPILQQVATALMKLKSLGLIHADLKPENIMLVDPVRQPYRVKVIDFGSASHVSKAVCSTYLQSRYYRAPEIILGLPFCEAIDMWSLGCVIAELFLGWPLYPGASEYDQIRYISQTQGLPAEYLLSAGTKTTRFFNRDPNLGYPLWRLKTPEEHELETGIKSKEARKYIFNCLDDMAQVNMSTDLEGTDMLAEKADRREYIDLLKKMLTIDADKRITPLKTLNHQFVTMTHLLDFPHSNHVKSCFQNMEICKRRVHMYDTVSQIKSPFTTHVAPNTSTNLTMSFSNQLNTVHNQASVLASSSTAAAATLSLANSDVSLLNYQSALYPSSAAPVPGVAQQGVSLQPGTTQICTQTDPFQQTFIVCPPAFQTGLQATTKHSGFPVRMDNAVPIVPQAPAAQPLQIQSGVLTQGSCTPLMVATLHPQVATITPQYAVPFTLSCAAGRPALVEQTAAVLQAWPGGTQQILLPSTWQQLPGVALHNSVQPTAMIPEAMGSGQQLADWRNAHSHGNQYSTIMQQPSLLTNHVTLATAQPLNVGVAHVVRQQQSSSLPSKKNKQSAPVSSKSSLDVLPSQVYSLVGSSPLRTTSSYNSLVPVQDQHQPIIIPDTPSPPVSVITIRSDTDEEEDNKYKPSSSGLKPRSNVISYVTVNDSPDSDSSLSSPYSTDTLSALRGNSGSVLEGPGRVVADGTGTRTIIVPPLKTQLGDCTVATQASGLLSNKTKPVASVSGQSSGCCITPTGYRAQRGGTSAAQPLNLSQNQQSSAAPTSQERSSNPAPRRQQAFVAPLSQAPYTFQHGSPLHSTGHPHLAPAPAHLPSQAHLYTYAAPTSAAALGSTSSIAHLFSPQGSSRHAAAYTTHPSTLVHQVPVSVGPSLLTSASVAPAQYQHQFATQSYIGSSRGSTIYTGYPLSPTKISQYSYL
Sequence of UniProt Q9NRM7 (whole entry, looked up): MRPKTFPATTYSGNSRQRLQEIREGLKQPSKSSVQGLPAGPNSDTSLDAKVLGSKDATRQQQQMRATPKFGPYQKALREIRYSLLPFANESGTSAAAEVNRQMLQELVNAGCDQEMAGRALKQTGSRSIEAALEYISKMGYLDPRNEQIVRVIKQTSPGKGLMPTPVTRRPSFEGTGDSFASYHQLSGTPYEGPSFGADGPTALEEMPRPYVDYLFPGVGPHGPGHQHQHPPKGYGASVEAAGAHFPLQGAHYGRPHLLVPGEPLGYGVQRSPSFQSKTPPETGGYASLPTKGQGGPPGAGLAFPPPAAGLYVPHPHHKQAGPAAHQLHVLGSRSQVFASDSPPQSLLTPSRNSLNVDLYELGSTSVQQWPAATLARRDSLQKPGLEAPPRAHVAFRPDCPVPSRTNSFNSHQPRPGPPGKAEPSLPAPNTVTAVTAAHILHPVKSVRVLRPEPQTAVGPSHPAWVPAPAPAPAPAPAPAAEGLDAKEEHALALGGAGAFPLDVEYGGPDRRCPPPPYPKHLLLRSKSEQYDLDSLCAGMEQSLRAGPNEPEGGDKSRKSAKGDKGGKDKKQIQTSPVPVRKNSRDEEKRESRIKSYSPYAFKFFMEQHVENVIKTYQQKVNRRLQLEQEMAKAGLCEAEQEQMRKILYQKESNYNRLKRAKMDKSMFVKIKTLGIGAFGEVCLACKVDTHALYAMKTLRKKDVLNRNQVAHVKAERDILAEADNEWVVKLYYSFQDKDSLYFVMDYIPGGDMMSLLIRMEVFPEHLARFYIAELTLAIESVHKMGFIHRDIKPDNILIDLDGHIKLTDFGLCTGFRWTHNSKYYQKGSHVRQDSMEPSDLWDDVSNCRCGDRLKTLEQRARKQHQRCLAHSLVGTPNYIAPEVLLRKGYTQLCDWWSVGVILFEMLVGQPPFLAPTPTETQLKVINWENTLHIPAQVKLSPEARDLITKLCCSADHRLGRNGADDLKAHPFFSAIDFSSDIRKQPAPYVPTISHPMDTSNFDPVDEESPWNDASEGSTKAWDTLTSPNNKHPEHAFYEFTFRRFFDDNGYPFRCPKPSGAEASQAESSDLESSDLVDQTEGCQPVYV
Sequence of UniProt P49759 (whole entry, looked up): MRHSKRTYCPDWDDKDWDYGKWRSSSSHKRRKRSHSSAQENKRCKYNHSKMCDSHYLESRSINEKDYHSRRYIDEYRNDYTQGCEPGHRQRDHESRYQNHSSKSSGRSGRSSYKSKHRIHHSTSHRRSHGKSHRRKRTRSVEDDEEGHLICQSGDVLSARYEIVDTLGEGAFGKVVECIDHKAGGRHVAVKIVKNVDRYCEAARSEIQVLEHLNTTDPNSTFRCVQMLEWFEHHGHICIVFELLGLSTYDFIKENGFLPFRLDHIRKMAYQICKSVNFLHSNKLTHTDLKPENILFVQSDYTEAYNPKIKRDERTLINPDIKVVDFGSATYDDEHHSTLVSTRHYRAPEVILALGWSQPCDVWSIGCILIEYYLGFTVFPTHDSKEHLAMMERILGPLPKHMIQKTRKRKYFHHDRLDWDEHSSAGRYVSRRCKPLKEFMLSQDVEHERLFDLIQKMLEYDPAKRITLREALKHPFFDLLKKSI
Sequence of UniProt Q00532 (whole entry, looked up): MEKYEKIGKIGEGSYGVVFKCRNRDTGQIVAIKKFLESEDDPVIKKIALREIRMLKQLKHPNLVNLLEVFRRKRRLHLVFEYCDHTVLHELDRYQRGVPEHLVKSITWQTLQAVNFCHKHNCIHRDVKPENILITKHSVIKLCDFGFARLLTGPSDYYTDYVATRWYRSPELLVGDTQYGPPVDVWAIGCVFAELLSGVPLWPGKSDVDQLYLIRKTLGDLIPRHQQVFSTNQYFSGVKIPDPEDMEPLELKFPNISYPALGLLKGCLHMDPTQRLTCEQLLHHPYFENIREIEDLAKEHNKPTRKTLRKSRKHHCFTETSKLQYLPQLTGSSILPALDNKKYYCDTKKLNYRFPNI

Series 1 — read-out: enzyme activity; action: inhibitor; concentration: 0.5 µM; baseline: control
Target: Serine/threonine-protein kinase Nek7 (NEK7, Homo sapiens, UniProt Q8TDX7)
Residues (Q8TDX7 1-302): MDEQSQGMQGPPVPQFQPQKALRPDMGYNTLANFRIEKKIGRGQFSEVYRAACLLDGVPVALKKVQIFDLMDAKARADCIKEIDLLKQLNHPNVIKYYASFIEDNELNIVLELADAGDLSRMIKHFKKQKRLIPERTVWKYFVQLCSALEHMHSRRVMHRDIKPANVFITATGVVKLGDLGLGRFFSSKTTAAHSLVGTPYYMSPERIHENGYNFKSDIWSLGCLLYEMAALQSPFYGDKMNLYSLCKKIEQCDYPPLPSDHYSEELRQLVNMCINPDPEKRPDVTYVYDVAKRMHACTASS
Structure (SMILES) | remaining activity [%]
Fc1ccc(-c2nc3n(c2-c2ccncc2)CCS3)cc1 | 105
O=S(=O)(NCCNC/C=C/c1ccc(Br)cc1)c1cccc2cnccc12 | 96.9
CCCC(=O)Oc1ccc2[nH]c(C(=O)c3cc4ccccc4[nH]3)cc2c1 | 95.5
Cc1cncc2cccc(S(=O)(=O)N3CCCN(C(=O)CN)C[C@@H]3C)c12 | 103
Nc1ncnc2c1cnn2-c1ccccc1 | 106
Nc1nc(Nc2ccc(S(N)(=O)=O)cc2)nn1C(=O)c1c(F)cccc1F | 99
CC#CC(=O)Nc1cc2c(Nc3ccc(F)c(Cl)c3)ncnc2cn1 | 98.2
O=C1NC(=O)C(c2c[nH]c3ccccc23)=C1c1c[nH]c2ccccc12 | 99.9
O=C1Cc2c([nH]c3ccc([N+](=O)[O-])cc23)-c2ccccc2N1 | 89.7
CC(C)(C)n1nc(Cc2cccc3ccccc23)c2c(N)ncnc21 | 103
COc1ccc(S(=O)(=O)N(CCO)c2ccccc2CN(C)CC=Cc2ccc(Cl)cc2)cc1 | 93.4
CCc1[nH]c(-c2ccc(OC)cc2)nc1-c1ccncc1 | 99.8
NC(=O)c1ccc(N(C(N)=O)c2c(F)cccc2F)nc1-c1ccc(F)cc1F | 90.1
Cc1ccc(NC2=CC(=O)c3sc(C)nc3C2=O)cc1 | 96.9
CSc1nc(-c2ccnc(N[C@@H](C)c3ccccc3)c2)c(-c2ccc(F)cc2)[nH]1 (racemic) | 89.6
CC(=O)c1ccc(N2CCOCC2)cc1O | 101
Nc1nccc(-c2c(-c3ccc(F)cc3)ncn2C2CCNCC2)n1 | 98.9
CC[n+]1c(/C=C/N(C)c2ccccc2)n(-c2ccccc2)c2ccc(-c3nc4ccccc4s3)cc21 | 95.4
Cc1cc(Nc2nc(-c3ccccc3)nc3ccccc23)n[nH]1 | 97.7
N#CC(=C(N)Sc1ccc(N)cc1)c1ccccc1C(F)(F)F | 93.9
COc1cc(Nc2c(C#N)cnc3cc(OCCCN4CCN(C)CC4)c(OC)cc23)c(Cl)cc1Cl | 94.6

Series 2 — Structure (SMILES): CCC(=N\O)/C(C)=C/c1ccc(F)cc1; read-out: cell-free assay; method: competition with immobilised ligand; concentration: 1 µM
target | remaining binding
LATS2 (Homo sapiens, UniProt Q9NRM7) | 100%
EGFR (Homo sapiens, UniProt P00533, L861Q) | 60%
MAP4K5 (Homo sapiens, UniProt Q9Y4K4) | 80%
NTRK2 (Homo sapiens, UniProt Q16620) | 66%
PRKG1 (Homo sapiens, UniProt Q13976) | 100%
CDKL1 (Homo sapiens, UniProt Q00532) | 81%
KIT (Homo sapiens, UniProt P10721, D816V) | 87%
PIKFYVE (Homo sapiens, UniProt Q9Y2I7) | 92%
MAP3K14 (Homo sapiens, UniProt Q99558) | 84%
CLK1 (Homo sapiens, UniProt P49759) | 79%
PAK2 (Homo sapiens, UniProt Q13177) | 82%
AAK1 (Homo sapiens, UniProt Q2M2I8) | 89%
ERBB3 (Homo sapiens, UniProt P21860) | 100%
Tyrosine-protein kinase ABL1, non-phosphorylated (ABL1, Homo sapiens, UniProt P00519, H396P) | 100%
EGFR (Homo sapiens, UniProt P00533, del752-759) | 59%
KIT (Homo sapiens, UniProt P10721, A829P) | 64%
HIPK1 (Homo sapiens, UniProt Q86Z02) | 80%

Series 3 — cell line: mouse MPNST tumor cells; method: high-content immunofluorescence imaging; refers to: nuclear SOX9; concentration: 10 µM; time: 12 h; setting: mean of 2 replicates; baseline: DMSO control; direction: higher = more nuclear SOX9
SMILES | nuclear SOX9 intensity
CN1CCC(=C2c3ccccc3Sc3ccccc32)CC1 | 146 % of DMSO
COc1cc(OC)c(C(=O)CCCN2CCCC2)c(OC)c1 | 102 % of DMSO
CC(=O)OCC(=O)[C@@]1(OC(C)=O)[C@@H](C)C[C@H]2[C@@H]3C[C@H](F)C4=CC(=O)C=C[C@]4(C)[C@@]3(F)[C@@H](O)C[C@@]21C | 86.7 % of DMSO
Cc1cc(C)cc(C(=O)NOCCCCCC(=O)NO)c1 | 127 % of DMSO
Nc1c2c(nc3ccccc13)CCCC2 | 114 % of DMSO and 111 % of DMSO
COc1ccc(C2=N[C@@H](c3ccc(Cl)cc3)[C@@H](c3ccc(Cl)cc3)N2C(=O)N2CCNC(=O)C2)c(OC(C)C)c1 | 77.2 % of DMSO and 76.8 % of DMSO
CCN1CCCC1CNC(=O)c1cc(S(N)(=O)=O)ccc1OC (racemic) | 96.3 % of DMSO
O=C(/C=C/c1ccccc1)NC(NC(=S)Nc1cccc2cccnc12)C(Cl)(Cl)Cl (stereo not drawn) | 95.2 % of DMSO
CO[C@@H]1[C@H](O)[C@@H](CO)O[C@H]1n1cnc2c(NC3CCCCC3)ncnc21 | 101 % of DMSO
Clc1cccc(-c2nnnn2Cc2cccnc2)c1Cl | 95.2 % of DMSO
Cc1cccc(Oc2cnc(=O)[nH]c2)c1 | 104 % of DMSO
Cc1nccc(-c2cn(Cc3ccccc3)c3cnccc23)n1 | 137 % of DMSO
CC(C)(O/N=C(\C(=O)N[C@@H]1C(=O)N2C(C(=O)[O-])=C(C[n+]3ccccc3)CS[C@H]12)c1csc(N)n1)C(=O)O | 110 % of DMSO
CC(C)(Cc1ccccc1)NCC(O)c1ccc(O)c(NS(C)(=O)=O)c1 (stereo not drawn) | 101 % of DMSO
O=C1CC2(CCCC2)CC(=O)N1CCCCN1CCN(c2ncccn2)CC1 | 116 % of DMSO and 111 % of DMSO
CC(C)Oc1ccc(-c2c[nH]cc2CN(C)CCN)cc1 | 84 % of DMSO and 102 % of DMSO
CN(CCCCCCCCCCN(C)C(=O)Oc1cccc([N+](C)(C)C)c1)C(=O)Oc1cccc([N+](C)(C)C)c1 | 92.5 % of DMSO
COc1ccc(Nc2ncnc3ccc(OC)cc23)cc1 | 89.1 % of DMSO
CCC(NC(C)C)C(O)c1ccc(O)c(O)c1 (stereo not drawn) | 102 % of DMSO

Series 4 — cell line: NCI-H446; time: 5 days; baseline: DMSO
Compound: CCC[C@H]1NC(=O)[C@H](Cc2cc(Cl)ccc2-c2cnn(C)c2)N(C)C(=O)[C@H](CC(C)C)NC(=O)[C@@H](N(C)C(=O)[C@H](CCCCN2CCOCC2)NC(=O)[C@@H](c2cccnc2)C2CCCCC2)CCCCNC1=O
assay | conditions | cell growth
Vi-Cell counting | 4.57 nM, together with: Myt1 inhibitor 1000 nM | 63.5% and 60.7%
cell counting | 41.1 nM | 89.2% and 96%
cell counting | 124 nM | 89.5% and 77.3%
cell counting | 13.7 nM | 87.4% and 93.1%
Vi-Cell counting | 371 nM, together with: Myt1 inhibitor 1000 nM | 42.6% and 52.2%
cell counting | 10 µM | 22.2% and 21.6%

Some of these lines once more (series 1):
Structure (SMILES) | remaining activity [%]
CC(=O)c1ccc(N2CCOCC2)cc1O | 101
O=S(=O)(NCCNC/C=C/c1ccc(Br)cc1)c1cccc2cnccc12 | 96.9
Cc1cc(Nc2nc(-c3ccccc3)nc3ccccc23)n[nH]1 | 97.7
COc1cc(Nc2c(C#N)cnc3cc(OCCCN4CCN(C)CC4)c(OC)cc23)c(Cl)cc1Cl | 94.6
O=C1Cc2c([nH]c3ccc([N+](=O)[O-])cc23)-c2ccccc2N1 | 89.7
Cc1cncc2cccc(S(=O)(=O)N3CCCN(C(=O)CN)C[C@@H]3C)c12 | 103
O=C1NC(=O)C(c2c[nH]c3ccccc23)=C1c1c[nH]c2ccccc12 | 99.9
COc1ccc(S(=O)(=O)N(CCO)c2ccccc2CN(C)CC=Cc2ccc(Cl)cc2)cc1 | 93.4
N#CC(=C(N)Sc1ccc(N)cc1)c1ccccc1C(F)(F)F | 93.9
